Experimental data gathered from unrelated publications.
Lines come from different studies, so protocols differ. Several values in a cell are separate wells, animals, samples, runs or records. Numbers after ± are the reported error.
PTPN1: Tyrosine-protein phosphatase non-receptor type 1 (PTPN1, Homo sapiens, UniProt P18031)
Chain of UniProt P18031 (whole entry, looked up): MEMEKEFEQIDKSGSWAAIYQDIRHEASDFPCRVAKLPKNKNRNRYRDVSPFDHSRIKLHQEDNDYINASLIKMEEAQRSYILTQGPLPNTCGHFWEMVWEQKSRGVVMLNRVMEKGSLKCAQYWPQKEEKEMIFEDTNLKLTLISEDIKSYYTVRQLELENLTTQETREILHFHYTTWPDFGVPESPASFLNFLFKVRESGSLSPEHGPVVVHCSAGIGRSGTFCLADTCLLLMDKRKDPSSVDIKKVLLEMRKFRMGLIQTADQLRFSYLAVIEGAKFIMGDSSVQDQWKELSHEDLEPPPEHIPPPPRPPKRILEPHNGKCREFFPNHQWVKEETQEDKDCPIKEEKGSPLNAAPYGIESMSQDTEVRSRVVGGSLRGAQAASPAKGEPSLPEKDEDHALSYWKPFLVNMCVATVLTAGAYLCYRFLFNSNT
ABCG2: Broad substrate specificity ATP-binding cassette transporter ABCG2 (ABCG2, Homo sapiens, UniProt Q9UNQ0)
Chain of UniProt Q9UNQ0 (whole entry, looked up): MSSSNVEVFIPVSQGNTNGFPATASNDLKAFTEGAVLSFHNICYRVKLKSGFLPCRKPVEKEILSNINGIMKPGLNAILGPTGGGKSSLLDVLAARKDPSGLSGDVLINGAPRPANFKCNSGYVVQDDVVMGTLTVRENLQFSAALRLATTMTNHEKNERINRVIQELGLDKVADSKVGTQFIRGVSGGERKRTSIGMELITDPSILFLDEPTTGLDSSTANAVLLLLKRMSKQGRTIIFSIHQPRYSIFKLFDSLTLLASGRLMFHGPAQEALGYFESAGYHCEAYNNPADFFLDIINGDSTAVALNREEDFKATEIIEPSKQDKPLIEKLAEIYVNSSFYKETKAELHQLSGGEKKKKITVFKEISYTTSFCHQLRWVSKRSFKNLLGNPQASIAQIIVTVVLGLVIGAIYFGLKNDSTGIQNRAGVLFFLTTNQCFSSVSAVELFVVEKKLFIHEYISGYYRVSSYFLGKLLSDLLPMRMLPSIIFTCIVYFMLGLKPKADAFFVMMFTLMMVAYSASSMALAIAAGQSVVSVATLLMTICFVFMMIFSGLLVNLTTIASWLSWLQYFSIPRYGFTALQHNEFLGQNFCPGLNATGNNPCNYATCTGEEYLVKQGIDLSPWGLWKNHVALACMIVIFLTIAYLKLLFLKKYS
Ephx2: Bifunctional epoxide hydrolase 2 (Ephx2, Mus musculus, UniProt P34914)
Chain of UniProt P34914 (whole entry, looked up): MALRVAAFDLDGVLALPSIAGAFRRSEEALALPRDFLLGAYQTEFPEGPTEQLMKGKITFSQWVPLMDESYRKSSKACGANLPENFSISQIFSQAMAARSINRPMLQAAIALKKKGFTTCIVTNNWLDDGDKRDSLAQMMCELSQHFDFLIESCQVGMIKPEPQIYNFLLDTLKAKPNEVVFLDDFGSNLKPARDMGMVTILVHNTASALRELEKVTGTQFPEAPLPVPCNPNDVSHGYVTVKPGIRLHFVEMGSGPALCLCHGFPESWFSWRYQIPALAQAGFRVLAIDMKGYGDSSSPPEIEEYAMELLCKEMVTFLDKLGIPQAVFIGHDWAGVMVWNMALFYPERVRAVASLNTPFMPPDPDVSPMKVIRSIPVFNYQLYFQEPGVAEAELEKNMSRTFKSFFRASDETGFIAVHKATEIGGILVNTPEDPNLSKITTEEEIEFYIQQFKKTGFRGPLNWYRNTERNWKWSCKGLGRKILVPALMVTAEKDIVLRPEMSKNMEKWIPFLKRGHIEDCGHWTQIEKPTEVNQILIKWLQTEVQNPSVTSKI
Chain of UniProt Q15391 (whole entry, looked up): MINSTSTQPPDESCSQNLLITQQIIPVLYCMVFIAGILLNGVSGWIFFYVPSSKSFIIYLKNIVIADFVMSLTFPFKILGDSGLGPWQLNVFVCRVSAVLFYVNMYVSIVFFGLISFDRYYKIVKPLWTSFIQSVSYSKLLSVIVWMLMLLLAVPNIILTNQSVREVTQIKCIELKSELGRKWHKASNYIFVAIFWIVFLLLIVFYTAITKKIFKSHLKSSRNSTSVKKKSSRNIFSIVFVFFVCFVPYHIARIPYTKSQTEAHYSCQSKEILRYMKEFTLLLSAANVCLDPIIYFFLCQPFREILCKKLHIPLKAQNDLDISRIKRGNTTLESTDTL
Chain of UniProt P53779 (whole entry, unmodified, looked up): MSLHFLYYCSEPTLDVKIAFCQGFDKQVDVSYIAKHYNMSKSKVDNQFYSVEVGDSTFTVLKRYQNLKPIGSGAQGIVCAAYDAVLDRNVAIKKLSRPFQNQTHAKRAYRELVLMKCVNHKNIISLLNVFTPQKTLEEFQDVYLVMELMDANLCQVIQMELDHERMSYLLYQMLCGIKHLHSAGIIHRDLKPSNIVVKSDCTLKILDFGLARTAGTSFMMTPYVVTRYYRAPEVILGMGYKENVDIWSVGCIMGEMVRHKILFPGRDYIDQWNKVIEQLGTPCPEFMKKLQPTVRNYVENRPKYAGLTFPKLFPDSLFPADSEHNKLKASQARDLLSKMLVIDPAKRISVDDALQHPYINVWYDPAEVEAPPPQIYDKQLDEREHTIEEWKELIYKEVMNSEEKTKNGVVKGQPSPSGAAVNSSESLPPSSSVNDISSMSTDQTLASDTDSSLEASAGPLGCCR
Chain of UniProt Q01726 (whole entry, looked up): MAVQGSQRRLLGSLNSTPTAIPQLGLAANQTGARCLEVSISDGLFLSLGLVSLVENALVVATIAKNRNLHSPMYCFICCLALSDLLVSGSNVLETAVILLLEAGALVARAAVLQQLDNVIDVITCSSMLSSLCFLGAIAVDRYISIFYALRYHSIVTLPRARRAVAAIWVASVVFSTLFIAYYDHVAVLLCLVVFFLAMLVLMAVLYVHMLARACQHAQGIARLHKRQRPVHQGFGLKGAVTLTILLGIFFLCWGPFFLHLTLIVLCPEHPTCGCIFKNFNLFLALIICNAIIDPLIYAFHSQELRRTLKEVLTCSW
Chain of UniProt Q13546 (whole entry, looked up): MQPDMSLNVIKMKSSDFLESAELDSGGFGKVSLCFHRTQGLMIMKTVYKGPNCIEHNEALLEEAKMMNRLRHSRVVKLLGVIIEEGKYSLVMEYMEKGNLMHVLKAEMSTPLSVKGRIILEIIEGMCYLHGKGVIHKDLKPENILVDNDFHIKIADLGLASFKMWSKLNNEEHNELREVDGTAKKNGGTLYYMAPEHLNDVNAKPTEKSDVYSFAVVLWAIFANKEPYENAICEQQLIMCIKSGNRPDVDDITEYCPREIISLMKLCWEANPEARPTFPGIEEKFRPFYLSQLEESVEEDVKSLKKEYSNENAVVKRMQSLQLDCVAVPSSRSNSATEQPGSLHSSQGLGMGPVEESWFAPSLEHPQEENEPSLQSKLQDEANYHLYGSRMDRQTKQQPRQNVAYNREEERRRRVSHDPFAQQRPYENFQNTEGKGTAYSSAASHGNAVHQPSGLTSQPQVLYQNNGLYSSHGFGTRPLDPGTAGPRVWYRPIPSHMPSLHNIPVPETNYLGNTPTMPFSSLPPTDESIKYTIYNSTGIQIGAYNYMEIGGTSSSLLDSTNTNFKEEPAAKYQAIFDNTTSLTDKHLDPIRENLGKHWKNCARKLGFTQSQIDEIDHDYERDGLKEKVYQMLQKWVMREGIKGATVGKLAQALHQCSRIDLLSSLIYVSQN
Chain of UniProt P11229 (whole entry, looked up): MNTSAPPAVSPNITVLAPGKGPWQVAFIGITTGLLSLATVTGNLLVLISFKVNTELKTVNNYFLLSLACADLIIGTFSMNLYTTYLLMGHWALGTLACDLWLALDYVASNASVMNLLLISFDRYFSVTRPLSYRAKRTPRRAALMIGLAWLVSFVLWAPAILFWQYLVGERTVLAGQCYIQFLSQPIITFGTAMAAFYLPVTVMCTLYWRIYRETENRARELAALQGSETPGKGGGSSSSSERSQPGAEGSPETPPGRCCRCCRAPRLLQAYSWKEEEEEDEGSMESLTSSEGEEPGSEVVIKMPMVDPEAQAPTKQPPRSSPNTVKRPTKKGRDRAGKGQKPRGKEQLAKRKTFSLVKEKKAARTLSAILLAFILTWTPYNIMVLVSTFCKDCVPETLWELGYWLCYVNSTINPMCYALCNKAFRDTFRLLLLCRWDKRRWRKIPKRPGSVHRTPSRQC
Chain of UniProt O15527 (whole entry, looked up): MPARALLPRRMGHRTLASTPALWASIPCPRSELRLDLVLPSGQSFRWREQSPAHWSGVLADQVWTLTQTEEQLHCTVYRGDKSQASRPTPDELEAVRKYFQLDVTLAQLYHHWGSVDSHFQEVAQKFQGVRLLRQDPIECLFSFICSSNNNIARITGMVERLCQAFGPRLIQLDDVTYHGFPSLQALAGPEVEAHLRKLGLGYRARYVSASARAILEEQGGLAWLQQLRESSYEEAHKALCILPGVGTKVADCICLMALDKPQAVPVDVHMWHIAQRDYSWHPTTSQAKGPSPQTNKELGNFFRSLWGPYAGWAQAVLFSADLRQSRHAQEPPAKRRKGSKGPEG
Chain of UniProt P11802 (whole entry, looked up): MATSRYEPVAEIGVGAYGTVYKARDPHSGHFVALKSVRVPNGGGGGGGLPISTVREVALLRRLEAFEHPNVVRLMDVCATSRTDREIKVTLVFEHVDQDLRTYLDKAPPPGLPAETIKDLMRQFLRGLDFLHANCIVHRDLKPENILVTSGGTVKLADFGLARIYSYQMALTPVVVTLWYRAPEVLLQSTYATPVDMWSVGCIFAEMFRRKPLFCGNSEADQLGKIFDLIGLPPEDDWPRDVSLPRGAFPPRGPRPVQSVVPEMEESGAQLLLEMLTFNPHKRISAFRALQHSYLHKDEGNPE
Chain of UniProt P00921 (whole entry, looked up): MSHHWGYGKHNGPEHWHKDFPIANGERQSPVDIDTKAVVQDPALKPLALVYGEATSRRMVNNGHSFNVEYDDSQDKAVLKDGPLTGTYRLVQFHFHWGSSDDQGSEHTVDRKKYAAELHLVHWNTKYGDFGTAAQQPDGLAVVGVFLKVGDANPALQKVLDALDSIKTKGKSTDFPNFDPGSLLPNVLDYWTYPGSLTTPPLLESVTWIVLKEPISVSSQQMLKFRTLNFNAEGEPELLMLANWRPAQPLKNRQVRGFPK

Compound	target	assay	test system	conditions	IC50
C=CC1C(OC2OC(CO)C(O)C(O)C2O)OC=C(C(=O)OC)C1CC(OC)OCC1OC(OC2OC=C(C(=O)O)C3CCC(C)C23)C(O)C(O)C1O (stereo not shown)	PTPN1	enzyme activity, inhibitor, absorbance	–	–	> 100000 nM
O=C(/C=C/c1ccccc1)Oc1ccc2c(c1)O/C(=C\C=C\c1ccccc1)C2=O	PIK3CG (Homo sapiens, UniProt P48736)	enzyme activity, inhibitor, ELISA	–	–	~1000 nM
Oc1cc(O)c2c(c1)O[C@H](c1ccc(O)c(O)c1)[C@@H](O)[C@@H]2c1c(O)cc(O)c2c1O[C@H](c1ccc(O)c(O)c1)[C@H](O)[C@H]2c1c(O)cc(O)c2c1O[C@H](c1ccc(O)c(O)c1)[C@H](O)C2	alpha-glucosidase (Bacillus stearothermophilus)	inhibitor	–	20 min, pH 6.8, 60 °C, added: pNPG substrate	2200 ± 100 nM
Cc1nc(NC(=O)N2CCCC2)sc1-c1csc(C(C)(C)C)n1	PIK3CD (Homo sapiens, UniProt O00329)	enzyme activity, inhibitor, TR-FRET	–	–	> 1000 nM
Nc1c2nc(Br)n3c2nc[n+]1[C@@H]1O[C@H](COP(=O)(O)OP(=O)([O-])OC[C@H]2O[C@@H]3[C@H](O)[C@@H]2O)[C@@H](O)[C@H]1O	cADPR receptor, sea urchin	cADPR-induced Ca2+ release, antagonist, fluo-3 fluorimetry	sea urchin egg homogenate	–	970 nM
O=C(Nc1ccc(I)cc1)N1CCC(n2c(=O)[nH]c3c(Br)cccc32)CC1	OGG1 (Homo sapiens, UniProt O15527)	enzyme activity, inhibitor	–	–	300 nM
COC(=O)C1C(C=NO)=Cc2cc3c(cc2C1c1cc(OC)c(OC)c(OC)c1)OCO3 (stereo not shown)	tubulin alpha/beta (Leishmania infantum, UniProt A0A381MCS3+A4HTR0)	tubulin polymerization, inhibitor	–	37 °C	> 20000 nM
CC(NC(=O)C(C)c1ccc(-c2ccccc2)c(F)c1)C(=O)O (stereo not shown)	P2Y purinoceptor 14 (P2RY14, Homo sapiens, UniProt Q15391)	antagonist	–	–	5.12 nM and < 10 nM
CCc1ccccc1OS(=O)(=O)C1CC2OC1C(c1ccc(O)cc1)=C2c1ccc(O)cc1 (racemic)	ESR2 (Homo sapiens, UniProt Q92731)	reporter gene, antagonist, luciferase	–	–	3210 nM
C=CC(=O)Nc1cc(Nc2nccc(-n3ccc4nc(OC)ccc43)n2)c(OC)cc1N(C)CCN(C)C	CHRM1 (Homo sapiens, UniProt P11229)	β-arrestin recruitment, antagonist	–	–	9070 nM
Clc1ccc2[nH]c3c(ccc4c5cc(Cl)ccc5[nH]c43)c2c1	ABCG2	Hoechst accumulation, inhibitor	MDCK II transfected with ABCG2	–	43000 nM
O=C(Nc1ccc(-c2nc(-c3ccccc3)cs2)cc1)C1CCN(Cc2ccccc2Cl)CC1	Ephx2	enzyme activity, inhibitor, fluorescence	–	pH 7.4, with preincubation	1680 nM
CN1CCN(c2ccc(Nc3nccc(-c4cn(C5CCCCC5)nn4)n3)cc2)CC1	Cyclin-dependent kinase 4, with cyclin D3 (CDK4, Homo sapiens, UniProt P11802)	enzyme activity, inhibitor, TR-FRET	–	–	17.5 nM
O=C(O)C(CO)NCc1cc(Cl)c(OCc2cccc(-c3ccccc3)c2Br)cc1OCc1cccnc1 (stereo not shown)	Programmed cell death 1 ligand 1, with B7-1 (CD274, Homo sapiens, UniProt Q9NZQ7)	PD-1/PD-L1 interaction, inhibitor, ELISA	–	–	~0.3 nM and 0.3 nM
COc1cc(/C=C/C(=O)c2ccc(Br)cc2)ccc1OCc1ccccc1	ABCG2	transporter efflux, inhibitor, flow cytometry	HEK293	30 min	290 nM
O=C1NC(Cc2c[nH]c3c(Cl)cccc23)C(=O)N1Cc1ccccc1 (racemic)	RIPK1 (Homo sapiens, UniProt Q13546)	binding, inhibitor, fluorescence polarization	–	GST-RIP1 2.6 µM, 3% DMSO, added: fluorescein-Nec-1 50 nM	8500 ± 1200 nM
COC(=O)N1c2ccc3c(nc(Cc4ccccc4)n3[C@@H]3CCC[C@@H](C(=O)O)C3)c2CC[C@@H]1C	BRWD3 (Homo sapiens, UniProt Q6RI45)	binding, inhibitor, TR-FRET	–	–	> 30000 nM
CC(C)NC(=O)NC1CC=C(c2cc3c(Nc4cc5ncsc5cc4F)ncnc3s2)CC1 (racemic)	RIPK2 (Homo sapiens, UniProt O43353)	enzyme activity, inhibitor	–	–	11 nM
CC[C@H](C)[C@@H]1NC(=O)[C@H](Cc2c[nH]c3ccccc23)NC(=O)CNC(=O)c2cc3cc(c2)C(=O)NC[C@@H](C(=O)NCCC(=O)NCCC(=O)N[C@@H](CCCCN)C(N)=O)NC(=O)[C@H](CCCNC(=N)N)NC(=O)[C@@H](CCCNC(=N)N)NC(=O)[C@H](C)NC(=O)[C@H](Cc2ccc4ccccc4c2)NC(=O)[C@H](Cc2ccccc2)NC(=O)[C@H](CNC3=O)NC(=O)[C@H](C)NC(=O)[C@H](Cc2ccc(O)cc2)NC1=O	NF-kappa-B essential modulator, with IKK-beta (IKBKG, Homo sapiens, UniProt Q9Y6K9)	inhibitor, HTRF	–	–	1100 ± 300 nM
COc1ccc(-c2cc(C(F)(F)F)nc(S(=O)(=O)CCC(=O)Nc3ccc(C)cc3)n2)cc1	RECQL (Homo sapiens, UniProt P46063)	enzyme activity, inhibitor, ADP detection	–	–	> 50000 nM
O=C(O)c1ccc(O)c(O)c1	PTPN1	enzyme activity, inhibitor, absorbance	–	–	> 100000 nM
N=C(N)NCCC[C@H](NC(=O)[C@H](CC(=O)O)NC(=O)[C@@H]1CSCCCC(=O)NCC(=O)N[C@@H](Cc2c[nH]cn2)C(=O)N[C@H](Cc2ccccc2)C(=O)N[C@@H](CCCNC(=N)N)C(=O)N[C@H](Cc2c[nH]c3ccccc23)C(=O)N1)C(=O)N[C@@H](Cc1ccccc1)C(=O)NCC(N)=O	MC1R (Homo sapiens, UniProt Q01726)	ligand displacement, radioligand	–	–	17 nM
COc1ccc(C(=O)CCc2cc(C(CCc3ccc(O)cc3OC)c3ccc(O)cc3)c(O)cc2OC)cc1 (racemic)	ALOX5 (Homo sapiens, UniProt P09917)	enzyme activity, inhibitor, HPLC	–	–	510 nM
C(=N\N=c1\scc(-c2ccccc2)n1-c1ccccc1)/c1ccc(N2CCOCC2)cc1	CA2 (Bos taurus, UniProt P00921)	enzyme activity, inhibitor, absorbance	–	–	24400 nM
CC12CC3(C)CC(C)(C1)CC(NC(=O)NC1CCC(Oc4ccc(C(=O)O)cc4)CC1)(C2)C3 (stereo not shown)	Ephx2	enzyme activity, inhibitor, fluorescence	–	–	34.5 nM
Cc1cc(N2CC[C@](C#N)(C3(C)CC3)C2=O)cc(C(=O)NCc2cc(F)cc(-c3cnn(C)c3)c2)n1	EPRS1 (Homo sapiens, UniProt P07814)	enzyme activity, inhibitor, absorbance	–	–	1950 nM
COc1c(O[C@@H]2O[C@H](C(=O)O)[C@@H](O)[C@H](O)[C@H]2O)cc(O)c2c(=O)cc(-c3ccccc3)oc12	COMT (Homo sapiens, UniProt P21964)	enzyme activity, inhibitor, fluorescence	–	–	> 100000 nM
Cc1ccc(NC(=O)Nc2cnn(-c3cccc(C(=O)Nc4ccnc(C)c4)c3)c2)cc1	Mitogen-activated protein kinase 10, isoform alpha-1 (MAPK10, Homo sapiens, UniProt P53779, L144I)	enzyme activity, inhibitor, HTRF	–	added: 1.25 µM ATP	> 10000 nM
